Published values from different studies.
Each numbered part is a random draw from the data of one study; scales do not carry over between parts.

Series 1 — technique: RNA Bind-n-Seq; molecule type: RNA; medium: in vitro; tested at: not given; relative to: input RNA pool; direction: higher = stronger binding; quantity: bound/input enrichment
Target: RING finger protein unkempt homolog, zinc fingers 1-6, GST-SBP tag (UNK, Homo sapiens, UniProt Q9C0B0, residues 30-357)
Sequence of UniProt Q9C0B0 (30-357, looked up): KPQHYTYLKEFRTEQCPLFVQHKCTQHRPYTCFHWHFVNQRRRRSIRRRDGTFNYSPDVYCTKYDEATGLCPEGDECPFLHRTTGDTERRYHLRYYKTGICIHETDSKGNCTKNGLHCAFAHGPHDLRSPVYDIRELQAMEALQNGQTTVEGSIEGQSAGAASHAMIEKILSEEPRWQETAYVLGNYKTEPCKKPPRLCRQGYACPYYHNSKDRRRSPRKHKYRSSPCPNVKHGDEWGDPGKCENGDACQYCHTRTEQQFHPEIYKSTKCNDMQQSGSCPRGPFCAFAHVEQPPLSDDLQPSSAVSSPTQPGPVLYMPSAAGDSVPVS
Notes: RNA with constant flanks, human and mouse sites, ends assumed
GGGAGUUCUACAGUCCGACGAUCAACGGAGAACUGGAAGAUAAGCCUCCAGCACCUCCUGUGCGAAUGAGCAGCACCAUCUUUAGCACUGGAGGCAAAGACCCUUUGUCAGCCAAUCACAGUUUGAAACCUUUGCCCUCUGUUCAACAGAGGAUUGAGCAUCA: 0.139 ratio
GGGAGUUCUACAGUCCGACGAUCGUUCGACUUUGGGAUCAUGCUACUAUGACAGAAGUGAAAUCUCUAAAUUUUAAUAUGUCUGUUAGUAGUAUGGAAUAUAUUCCUGAGGGAGAGAUUUUGGUUAUAACUUAUGGACGAUCUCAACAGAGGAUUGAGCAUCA: 0.39 ratio
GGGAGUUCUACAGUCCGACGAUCUUCCAUCCAGAGUUUGCUAAUCCAGAUUUUACACAACCUAUCUCAGAAGUUGUAGAUGAAGUCAUUCAGAAUUGCCCCAUUGAUGUCCGGCGUCCUCUCUACAAGAACAUUGUCCUCUCUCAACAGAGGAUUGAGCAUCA: 0.334 ratio
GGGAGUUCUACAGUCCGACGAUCAAGCUAUCAUUGAAGAAGAUGAUGGUGAUGGGGGAUGGGUAGAUACAUAUCACAACACAGGUAUUACAGGAAUUACUGAAGCAGUUAAGGAGAUUACACUGGAAAGCAAGGACAGUAUAACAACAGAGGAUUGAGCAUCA: 0.114 ratio
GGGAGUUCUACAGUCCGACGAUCUUUCCGAUCUUGUCCCCCUGCCCUUCCCUCGUAGUCUCUGCAUUUCUCCCCCAAGGUGGCAUUAGCAGGCUUGAGGCUCCCAGGGGAUAGGAACGCCUGGCCUGGCGUGCUUAGCACCGCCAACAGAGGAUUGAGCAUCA: 0.247 ratio
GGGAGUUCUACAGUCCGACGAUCGUUCAGCUCCACCAGAUGGCUGUGAUAGGGCAGCAGGCCGGGAGCAGCAGCAACCUCACCGAGCUACAGGUGGUGAACCUGGACACCGCCCACAGCACCAAGAGUGAAUGAUCCGCCCGCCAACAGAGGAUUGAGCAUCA: 0.184 ratio
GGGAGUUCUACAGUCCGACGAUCAUGUGACAUGUUUGUACAUUUUAUCUAUAUCUUCAUGGCAAAAUAUUUUGUUUAAAACAUGAUUAUCUUAAUUCCUGUGAAGUGGCACUCUACACUCUAAUUAAACUUUUAUCUGAUGUACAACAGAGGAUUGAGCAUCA: 0.676 ratio
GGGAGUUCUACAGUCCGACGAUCAUUGGCCAAGGCCUGAAGCACAGGACCAGCUAGAGGCAGCAGGCUCCGAGUGCCAGGGAGAGCUUGUGGCUGGCCUGUUUUGUAUGAAGAUGGUCCUUUCUGAUCACGACUUCAAAUCCCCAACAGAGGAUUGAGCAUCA: 0.123 ratio

Series 2 — technique: protein-binding microarray; molecule type: double-stranded DNA, one strand shown; medium: in vitro; tested at: 2200 nM top; notes: 60-bp whole probe; together with: salmon DNA 0.4 mg/ml; relative to: random background probes; direction: higher = stronger binding; quantity: fitted relative affinity; all sequences stand within: GCCTAGCAC … GTCTTGATTCGCTTGACGCTGCTG
Target: Interferon regulatory factor 7, full length, phosphomimetic (IRF7, Homo sapiens, UniProt Q92985, residues 1-503, S471D/S472D/S475D/S476D/S477D/S483D/S484D/S487D)
Residues (chain): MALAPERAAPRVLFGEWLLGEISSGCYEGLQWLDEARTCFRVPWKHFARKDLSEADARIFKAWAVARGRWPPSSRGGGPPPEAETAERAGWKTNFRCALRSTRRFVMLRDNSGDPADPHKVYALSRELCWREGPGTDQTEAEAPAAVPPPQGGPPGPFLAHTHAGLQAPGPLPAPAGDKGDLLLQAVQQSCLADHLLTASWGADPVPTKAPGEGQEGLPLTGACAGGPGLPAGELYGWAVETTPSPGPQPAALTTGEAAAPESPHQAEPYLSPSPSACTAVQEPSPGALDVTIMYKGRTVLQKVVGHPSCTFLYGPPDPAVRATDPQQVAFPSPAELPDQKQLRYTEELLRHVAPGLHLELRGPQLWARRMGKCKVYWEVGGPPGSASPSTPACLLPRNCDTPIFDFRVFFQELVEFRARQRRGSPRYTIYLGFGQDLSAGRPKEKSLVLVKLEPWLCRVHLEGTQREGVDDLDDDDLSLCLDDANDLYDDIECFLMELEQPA
CACTATTTAAGGCCTATGCACGTGCTA: 0.203 z-score
GACCATATCGGGTTTCGAGACGTGCTA: 1.66 z-score
CCACTCTTCCTTTACTTTCTGTGCTAG: 2.92 z-score
TCAGATATCAGTCTCGATTAGTGCTAG: 0.542 z-score
TTAGGTTTCCTTTACCTTTAGTGCTAG: 1.94 z-score
ACAAATACAAGTTTCTCCTTGTGCTAG: 1.4 z-score
TCATATACCCATGTAGAACTGTGCTAG: 0.986 z-score
TTAGGTATCCTACTGCTATAGTGCTAG: 0.583 z-score
TCCATTTTCTAAATGCCCTAGTGCTAG: 3.92 z-score
TTCTTTATGCACTCTTTACATGTGCTA: 1.25 z-score
TCACTCTTCTGGATCTCACTGTGCTAG: 1.64 z-score
TCATATCTGTGTTATTAAACTGTGCTA: 1.16 z-score
ATTGCTTCCTCTTTTTTGTTGTGCTAG: 2.64 z-score
GACGATTACAGTTCCGAGACGTGCTAG: 0.766 z-score
TTAGGTTTCGACGCTGGGTTAGTGCTA: 1.48 z-score
TTAGAAGTGGGGTTTCGATTAGTGCTA: 2.48 z-score
TCACTTTTGAGAGATGGAACTGTGCTA: 1.29 z-score
GACGATTTCCTTTCCCTGACGTGCTAG: 3.04 z-score

Series 3 — technique: protein binding microarray; molecule type: double-stranded DNA, one strand shown; medium: in vitro; tested at: not given; relative to: not given; direction: higher = stronger binding; quantity: E-score
Target: Histone acetyltransferase KAT6A, winged helix 2, GST fusion (KAT6A, Homo sapiens, UniProt Q92794, residues 85-181)
Notes: 8-mer, flanks averaged, mean of 2 arrays, mostly near background
Target sequence (chain): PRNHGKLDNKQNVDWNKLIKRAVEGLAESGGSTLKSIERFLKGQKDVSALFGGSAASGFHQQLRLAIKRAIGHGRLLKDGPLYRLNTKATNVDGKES
GACCTCGC: 0.077
ACTATAGC: -0.146
GTTCAGGA: -0.0883
CTATCATC: 0.0926
ATAAGCTC: -0.0646
CAGACTAC: -0.0246
ACTATCAG: -0.0905
AGTCCTGA: -0.0886
GTGAGTTA: 0.0291
ATAATGTA: -0.0406
TAGTGGAA: 0.0734
AAATATAG: 0.0948
GAACGAGA: -0.0483
ACTCACTG: 0.0482
CAGAACTG: 0.237
AAGTAAGA: -0.119
GTGCTAGA: -0.0993
ACGGTCGA: -0.14
TGGTTGAA: -0.0343

Series 4 — technique: RNA Bind-n-Seq; molecule type: RNA; medium: in vitro; tested at: 365 nM; relative to: no-protein control; direction: higher = stronger binding; quantity: RBNS enrichment (R)
Target: RNA binding protein fox-1 homolog 2, RRM domain, GST-SBP tag (RBFOX2, Homo sapiens, UniProt O43251-10, residues 100-194)
Notes: natural RNA segment, single round, ends assumed
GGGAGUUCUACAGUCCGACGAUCAGGGAGAGCUUCCUCGCUGGACGGGACCCACCUUUCUGUGUUGUUUACACCUUGCCCUUCUGUGCGUUCCAUUUCUGUAGUAUGUUUCCUCUUUCCUCCAUUCAUCAUCAUGGAAUUCUCGGGUGCCAA: 0.748
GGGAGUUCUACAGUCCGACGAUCUUUUUUUCUGCCUCGGUUCUUAUCGGCUAGGUUUGAGGUAUUUCACUGAGAACGUGAACUCGGUCUUCCUUCCAGCUGUCGUCAGGAUCUUGGAGGUGUACACUUACUUAUGGAAUUCUCGGGUGCCAA: 0.443
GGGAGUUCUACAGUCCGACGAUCGCACCCCCUACUGUGUGCUCCUCUUGUGCACCUACUGUGUGCUUCUUCCGGGGCUUGUUGCCAUUCCCCUAGAUGCUGGAGAAAGCCUGGGCCAGCCUGUAGCCUGACCGUGGAAUUCUCGGGUGCCAA: 0.566
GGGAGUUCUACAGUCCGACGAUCAGAAAGCACGAAAAAUUAUUUAUAAUAGUCUGGAGAAAAAACACACUGUAAUAUUUCAAGUGUAUGCAGUAGAAUGUACUGUAACUGAGCCCUUUCCCACAUGUCUAGGCUGGAAUUCUCGGGUGCCAA: 4.32
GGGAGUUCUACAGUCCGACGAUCAGUACUAAAAUCUGUCAAGUGUUUUCAGUAUAGCACAUUAUUUACUGAGUGCCAGUUGUAAAUGUUUUUCAACCAGCACCUAAAAAGACUCUUUUCAAAAAAUCACAGAAUGGAAUUCUCGGGUGCCAA: 1.08
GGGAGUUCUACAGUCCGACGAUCUAGCCCAGGCUUUGAACUGGCCUUAGCCUUCCACAUGCUAGGAUUAUAGGUAUGAACCAACAUGCCCAGCUCUCUCUUCUCUCGUGAAGUCAUACCCUGUGAGUAACUGGUGGAAUUCUCGGGUGCCAA: 0.471
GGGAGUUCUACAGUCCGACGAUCCUGACAUCCACCACAGAGGACGAGUAGGGCCACCCAGGGCCAGGAGAACAGGAACAGAACUGAGCAGGGGCAGGUCUCCAAGGCAAGCCCAGCUGGUGUGACUUAGACAAUGGAAUUCUCGGGUGCCAA: 0.382
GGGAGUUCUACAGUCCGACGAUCCCUGCUUUUCAUACAGAACUAGCCAAUGUAAAGAUGACUCACAUGUAAAUACUUUUUUCCAUUUCACACCGUUGUAUUAUAAGUGUAUAUGGCGACUCCUUUUCCAGAAAUGGAAUUCUCGGGUGCCAA: 0.701
